Results gathered from unrelated publications.
A part holds a random share of what one study measured. Changes are numbered by the printed parent chain.

Sample 1
Target: Hepatocyte nuclear factor 3-alpha (Foxa1, Mus musculus, UniProt P35582, residues 1-468, full length assumed)
Sequence of UniProt P35582 (whole entry, looked up): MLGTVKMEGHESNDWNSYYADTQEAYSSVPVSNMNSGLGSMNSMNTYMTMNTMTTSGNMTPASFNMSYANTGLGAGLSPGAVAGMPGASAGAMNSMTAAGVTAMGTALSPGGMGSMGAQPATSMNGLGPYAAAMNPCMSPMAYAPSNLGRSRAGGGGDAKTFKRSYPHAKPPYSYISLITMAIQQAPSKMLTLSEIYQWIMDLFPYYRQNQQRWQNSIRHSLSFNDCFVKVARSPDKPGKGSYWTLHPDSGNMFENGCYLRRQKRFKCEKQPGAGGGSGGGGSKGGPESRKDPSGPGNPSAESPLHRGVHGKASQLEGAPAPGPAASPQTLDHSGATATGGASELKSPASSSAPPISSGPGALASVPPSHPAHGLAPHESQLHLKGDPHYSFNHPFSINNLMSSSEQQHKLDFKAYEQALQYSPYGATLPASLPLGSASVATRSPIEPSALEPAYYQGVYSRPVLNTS
Method: EMSA with sequencing
Molecule type: double-stranded DNA, one strand shown
Medium: in vitro
Tested at: 10 and 20 nM
Notes: whole designed probe, mean of two concentrations, ends assumed
Baseline: negative control set to 0
Reading: higher = stronger binding
Constant ends, left off below: GTGAGCGGTGCCCATTGATGGGGAAC … TTTCACTGGGATCGTGGGGAC
Sequence | normalised bound fraction [ratio]
TACTGAATAATAATTATTAAGCTATATACTTACAGAAAAGAGGATATGAAAATATTAATCAAGTATGACCTCTACTGGTAACTTTTATGCACTGTCAACAAGAGATCTAAGATTTTTATTGAGCTCCTACCATAAAGACACATCATTTCAATTCAACCATCAGTAGCCTCTACTTTTTAAAAAAATATTTTTA | 0.101
CTGGAGAAATACAGTACGAAACCCAGCAGGCTTCTGCAAACAACACATCCCTTTAAGTTAATTGGTGTTATATAGAAGCTGAAATGCTCCGCTTATTTACAAAGCTACAGATTTATGTAAAGCAAAACCAATTACACTTAATGCCTAAACTATTCCAGGTGCTCAATGATAATGTTGCTAGGCAGTAGAGAAG | 0.264
CAATGAAGAAATTGAGAAATTGATTACAGATACAATGAAGAAATTGAGAAATTAATTACAGATCCTTATGACCTATTTCACTTATCTGTTTCCTTATTTACTTTGCCATACATTCCTGTAGGCCCATAGAGAAATCCAGTACTGTAAAGTAAATGGAAGCTTGCATTCAGAATGGTTCATCATTAGCAGTTTC | 0.382
ATCTTCCCCCTCTTCCTTGCCCCACCAGCTCACCTACGGGGGTTATTTGCAGATAGGAAAATAAATAAAGCCGGCATTCGTTAACGCAGTTCACGCGCATACTGCTGTTTGCTCTGCATCTAACATGGTCCTTACGCGAGGCGTGGCTCCGGGAGAGCAAAGCACCGTGTCAGGCGCATGATCCGGGCTCGCC | 0.359
TAATTGACAATAGTAGATGAGTTAGCCAGGAGACTAAATACAGGTGAAAGGATGACAGCGCTAGATCTTGACACAAATTACCTTAATGGCTGTGCAAATAGTAAGCTGGATACGATTTTTTGAAAACAAACCAAGCTAAACAATCCATTGAAGTGCTCTCTTCCATCTATACCCAGAAACAGCAATTTAGCTT | 0.292

Sample 2
Target: RING finger protein unkempt homolog, zinc fingers 1-6, GST-SBP tag (UNK, Homo sapiens, UniProt Q9C0B0, residues 30-357)
Method: RNA Bind-n-Seq
Molecule type: RNA
Medium: in vitro
Tested at: not given
Notes: RNA with constant flanks, human and mouse sites, ends assumed
Baseline: input RNA pool
Reading: higher = stronger binding
Constant ends, left off below: GGGAGUUCUACAGUCCGACGAUC … CAACAGAGGAUUGAGCAUCA
Construct (chain): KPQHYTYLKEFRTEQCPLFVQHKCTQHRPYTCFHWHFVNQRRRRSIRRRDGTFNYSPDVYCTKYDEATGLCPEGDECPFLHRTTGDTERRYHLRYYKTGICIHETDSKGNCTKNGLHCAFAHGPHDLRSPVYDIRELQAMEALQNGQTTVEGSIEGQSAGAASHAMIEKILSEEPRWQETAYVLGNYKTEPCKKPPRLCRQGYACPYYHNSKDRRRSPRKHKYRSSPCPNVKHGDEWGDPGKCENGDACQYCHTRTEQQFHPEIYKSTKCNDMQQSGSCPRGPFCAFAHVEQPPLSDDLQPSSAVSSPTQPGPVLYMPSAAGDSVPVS
Sequence | bound/input enrichment
UUCACAUUUGGAAGUUUUUCUAAAGGACAACUGGGCAGACCAAUUUUGGAUGUGCCAUAUUGGAAUGCAAAGCCAGCUCCCAUGCCUAACAUUGGAUCAAAAUAUGGAAGAAAAGCUACU | 0.162 ratio
AAGUCAGCAGCUGAGGUGGAGGAAGCACCUUCCCCUGAAGACAAUGUCUAUUUCGGAACUACUAGUGACGAUUCGGAUAUUGUUACACUUGAACCACCUAAGCUGGAAGAAAUGGGGAAC | 0.0941 ratio
AAUCACUUUGAAGUCCUCCCUCCCGAGCUGGGAGACUGCCGGGCUCUGAAGCGAGCCGGGCUAGUUGUGGAAGAUGCUCUGUUUGAGACUCUGCCCUCAGAUGUCCGGGAGCAGAUGAAA | 0.113 ratio
AGGAAUUACAGGUCUUCAAGAUAUUUUUCCUUUAAAUUGUGAACAUUUUAUCUUGCACUGUAAUUGGCUGUCUCCAUAAGGAAUGAUUUAUUCUUGGAUUCUGACAUUCCUGUGUAUACU | 0.0908 ratio
CGGACCCUGAUACCACGCUACUUCCGAAGCAUUUUUGAGGGGGGUGCCACAGAGCUGUACUACGUGCUCAAGCACCCCAAGGAGGCAUUCCACAGCAACUUCGUGUCCCUCGACUGUGAC | 0.0965 ratio
AUAAAAUUAGAAACUUAAAUUCCAAGCUAAAUUUCAGCUUUGACCCACCUAACUCCAGUGAAUAGGUGGCAGCUCAGAAACAAGGACAGCACUGCUGCUGCCAGAGCAAGCUCACAUCCA | 7.13 ratio
GCUCCACAGUUAGGAGGUAGCUUUGCAGUUUGGGGAGGGCUGUUUUCCAUGAUUGACUGUAGUAUGGUUCAAGUCAGAGGAAAGGAAGAUCCCUGGAACUCCAUCACAAGUGGUGCCUUA | 0.217 ratio
AAGAAAGAGCAUGCAGCUAUCAUUCUUUGGAACACUACAUCUUGGAAACAGGUGCAGAAUUUAGUUUUCCACAGUUUGACAGUCACGCAGAUGGCCUUCUCACCUAAUGAGAAGUUCUUA | 0.133 ratio

Sample 3
Target: Sal-like protein 4, full length isoform B (SALL4, Homo sapiens, UniProt Q9UJQ4-2, residues 1-616)
Method: universal PBM
Molecule type: double-stranded DNA, one strand shown
Medium: in vitro
Tested at: not given
Notes: 8-mer, flanks averaged, mean of replicates
Reading: higher = stronger binding
Target sequence (chain): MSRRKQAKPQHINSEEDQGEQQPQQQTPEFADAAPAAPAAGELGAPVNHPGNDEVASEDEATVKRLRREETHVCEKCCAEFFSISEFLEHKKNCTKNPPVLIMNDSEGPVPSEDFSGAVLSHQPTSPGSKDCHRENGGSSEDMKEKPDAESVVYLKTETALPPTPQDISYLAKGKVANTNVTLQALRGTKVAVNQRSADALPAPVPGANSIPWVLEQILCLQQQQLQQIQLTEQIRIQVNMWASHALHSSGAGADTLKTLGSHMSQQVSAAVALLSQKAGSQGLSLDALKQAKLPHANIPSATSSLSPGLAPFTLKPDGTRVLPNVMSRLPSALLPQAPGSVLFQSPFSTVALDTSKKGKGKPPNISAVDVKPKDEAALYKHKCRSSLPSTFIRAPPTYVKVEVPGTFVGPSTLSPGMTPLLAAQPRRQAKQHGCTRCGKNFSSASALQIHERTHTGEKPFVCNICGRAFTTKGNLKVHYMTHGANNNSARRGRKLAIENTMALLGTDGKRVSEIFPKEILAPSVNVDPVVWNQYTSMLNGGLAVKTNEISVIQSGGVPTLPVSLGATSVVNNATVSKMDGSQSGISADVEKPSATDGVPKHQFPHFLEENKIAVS
Sequence | E-score
CCGGGCAC | -0.33
GACAAGAA | 0.0945
CCGGCATA | -0.142
GACTTAGC | -0.113
GGCAACCC | -0.271
TGACAAAA | 0.258
CATCAGTC | -0.139
ACCGCAGC | -0.196
CTGGATAC | -0.0434
AGCTTAGC | -0.145
AGCCGATG | -0.258
CCAAGCCA | -0.0684
CTCGTGCC | -0.341
CTTTAGCA | -0.0335
CATTGGTA | -0.0246
AACTTTTC | 0.0967
AAACACCC | -0.089
ACACGAGC | -0.0896
AATCTGGA | -0.00384
AACGAAGT | 0.109
AGATCAGC | -0.238
AACGTATT | 0.235
AAAAACCG | -0.0902
ATAGTCCA | 0.108
CACCATGC | -0.256

Sample 4
Target: CCNA2, cyclin fold, Cln2 fusion (human)
Method: yeast growth competition, sequencing
Medium: yeast
Notes: strong parent motif
Baseline: not given
Reading: higher = stronger binding
Starting sequence: RBL2 docking peptide (human); STTRRRLFVENDS
Variant | normalised enrichment score
D12V | 5.68
D12W | 4.84
S13M | 5.56
D12Y | 5.51
N11E | 5.64
E10A | 4.84
F8E | 0.918
L7T | -0.0222
R4N | 1.18
L7S | 0.0832
L7R | 1.09
R6Q | 5.67
F8Y | 2.9
V9L | 5.35
R6M | 3.32
T2G | 6.2
V9Q | 5.49
T3L | 3.89
V9F | 6.85
R5K F8L | 0.488
R4G | 0.879

Sample 5
Target: RNA binding protein fox-1 homolog 2, RRM domain, GST-SBP tag (RBFOX2, Homo sapiens, UniProt O43251-10, residues 100-194)
Method: RNA Bind-n-Seq
Molecule type: RNA
Medium: in vitro
Tested at: 365 nM
Notes: natural RNA segment, single round, ends assumed
Baseline: no-protein control
Reading: higher = stronger binding
Constant ends, left off below: GGGAGUUCUACAGUCCGACGAUC … UGGAAUUCUCGGGUGCCAA
Residues (chain): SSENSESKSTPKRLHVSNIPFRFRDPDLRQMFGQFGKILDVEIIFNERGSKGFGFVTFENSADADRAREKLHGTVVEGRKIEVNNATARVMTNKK
Sequence | RBNS enrichment (R)
AGUUUUCUGUAGUGAUAUUGUUGAAUAUGACAGGUAAAGCAACUGUGAGGGCAAACUAGAAUUAGUAGUGAGAAACUGCUAAAGCUGAUUUGCCAUUUUACUGAAAUGGA | 0.478
GUCAUCGUUUUAACUGGGAACACUUGGUCACUACAAGGACAUGUCCUGGUUCCCUGGGACAGCAGGAUCCCCUCCUCAAAGCAGCCAGAGUUUACUGAACACCAAGGAAG | 0.208
AGUAAUGCUUGCUUGCUAAUGAAUGUAUAGGAGACCACAUUGUAAUUGUUCUUAGAUGAUGGAGUCCAUGCAGUUUCUUAGAAAUCGGUCUCAGUGCAUGCUGUGCUUUU | 18.6
GUUUACCCGUCAAGUAUUAGCAGCAGUAUUUCUCCCACACGGAGAAGCCUGUGCACAAGUAGCAUGGGCACCUGGAAAACUUGAACCUGGAAGGAAAGAUUCCCAGCAUG | 14.3
CCGGCCCCUGGCCCUGGGGAACAUCCCUAGAGGCCCAGAAUGGGGGUUGCUGGGUACCCCAUGCCCUGAGGGUUCCAGCACUGCUGCCAAGUGGCCUUGUCCCAGCUCCC | 0.231
UAUUUUUGGAAUAUUUGUAUUACUUACAAUUAAUUAAUAAAAGUGGGUUUAAAAAACCUUUCCAGGAUGUGAGCUGCCACCAACCUUCAUUGGCCCUUAAGUGUUCACUG | 0.365
UGGUCCCCACUCAUGAGGACCUUAACUCCCUGACGAUCCAGUCACCCAGGACCUGAUGUCAGCAGCCUGAGGAUAACAACCCUGUCAGUGAAACGGAAUCUCCACCCCAG | 0.228
UUCAACACAAGCAAAGCAGGUUACAUGGUAAUGUUCAUUCAGUAUAUUUCUUGUUUGUGAAAUUGAAACCUCUAUAGGCAUCAUAUGCUUCUUGUCUUUAACAAAGUCUU | 0.542

Excerpt of the above (sample 3):
Sequence | E-score
AACTTTTC | 0.0967
CACCATGC | -0.256
AGCCGATG | -0.258
GGCAACCC | -0.271
AATCTGGA | -0.00384
CCAAGCCA | -0.0684
GACAAGAA | 0.0945
GACTTAGC | -0.113
